Results of several laboratories.
Each numbered part is a random draw from the data of one study; scales do not carry over between parts. Positions count from the first letter of the parent shown.

Study 1
Target: Tyrosine-protein kinase ABL1 (ABL1, Homo sapiens, UniProt P00519)
UniProt P00519, sequence (whole entry, looked up): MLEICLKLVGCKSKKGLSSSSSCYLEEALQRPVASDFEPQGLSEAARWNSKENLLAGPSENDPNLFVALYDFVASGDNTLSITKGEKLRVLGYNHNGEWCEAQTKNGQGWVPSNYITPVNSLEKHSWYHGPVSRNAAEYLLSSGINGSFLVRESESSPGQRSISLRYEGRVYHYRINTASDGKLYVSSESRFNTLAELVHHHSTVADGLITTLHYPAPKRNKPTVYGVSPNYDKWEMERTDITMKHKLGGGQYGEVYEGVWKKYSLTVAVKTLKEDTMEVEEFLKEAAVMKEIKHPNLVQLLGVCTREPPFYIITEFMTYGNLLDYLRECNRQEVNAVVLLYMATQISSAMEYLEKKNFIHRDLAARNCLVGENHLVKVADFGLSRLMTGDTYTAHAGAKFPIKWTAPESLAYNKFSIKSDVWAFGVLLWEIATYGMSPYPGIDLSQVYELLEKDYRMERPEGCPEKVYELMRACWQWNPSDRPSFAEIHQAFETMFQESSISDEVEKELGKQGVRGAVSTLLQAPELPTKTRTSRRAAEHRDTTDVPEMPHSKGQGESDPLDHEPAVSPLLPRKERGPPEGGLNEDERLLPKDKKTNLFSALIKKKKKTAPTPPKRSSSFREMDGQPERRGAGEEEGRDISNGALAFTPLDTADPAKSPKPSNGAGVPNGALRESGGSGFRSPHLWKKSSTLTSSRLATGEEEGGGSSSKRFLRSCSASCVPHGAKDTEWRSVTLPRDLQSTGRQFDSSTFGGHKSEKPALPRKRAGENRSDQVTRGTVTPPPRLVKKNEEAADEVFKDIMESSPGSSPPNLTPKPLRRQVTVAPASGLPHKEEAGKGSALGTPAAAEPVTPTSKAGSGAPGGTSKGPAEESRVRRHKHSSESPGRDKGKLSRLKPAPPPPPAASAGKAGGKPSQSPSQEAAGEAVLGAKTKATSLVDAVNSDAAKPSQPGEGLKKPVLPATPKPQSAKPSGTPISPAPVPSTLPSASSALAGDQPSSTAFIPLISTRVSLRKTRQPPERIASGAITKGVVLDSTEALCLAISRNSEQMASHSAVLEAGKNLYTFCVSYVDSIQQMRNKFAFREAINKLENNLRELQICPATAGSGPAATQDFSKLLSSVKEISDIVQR
Read-out: enzyme activity
Action: inhibitor
Concentration: 0.5 µM
Baseline: control
`Ic1cccc(CSc2nnc(-c3ccncc3)o2)c1` has a remaining activity of 107%.
`c1ccc(-c2[nH]ncc2-c2ccnc3ccccc23)nc1` has a remaining activity of 77.1%.
`CCN(CC)C(=O)c1ccc(Nc2nc(OCC3CCCCC3)c3[nH]cnc3n2)cc1` gave a remaining activity of 67.1%.
With `O=c1cc(-c2cccc3c2Sc2ccccc2S3)oc(N2CCOCC2)c1` the remaining activity was 99.5%.
For `COc1cc2ncnc(Nc3ccc(O)c(Br)c3)c2cc1OC`, the remaining activity was 79.4%.
For `Cn1nc2c3c(cccc31)C(=O)c1ccccc1-2`, the remaining activity was 99.1%.
The remaining activity of `CCN(CC)CCNC(=O)c1c(C)[nH]c(/C=C2\C(=O)Nc3ccc(Cl)cc32)c1C` is reported as 24.7%.
With `Cc1nc2cc3nc(-c4cccs4)cnc3cc2n1C` the remaining activity was 80.4%.
The remaining activity of `Cc1cc2ncc(-c3ccccc3)nc2cc1C` is reported as 99.6%.
`CN(C)C[C@H]1CCn2c(c(C3=C(c4cn(C)c5ccccc45)C(=O)NC3=O)c3ccccc32)C1` has a remaining activity of 98%.
With `O=C(Nc1cccc(Nc2nccc(Nc3cccc(C(F)(F)F)c3)n2)c1)C1CC1` the remaining activity was 94.9%.

Study 2
Target: NFE2L1, bZIP domain (human)
Technique: DHFR protein complementation
Medium: yeast
Notes: single substitutions, most at no-binding floor
Baseline: wild-type JUN-FOS pair
Reading: higher = stronger binding
Parent: JUN, bZIP domain (human); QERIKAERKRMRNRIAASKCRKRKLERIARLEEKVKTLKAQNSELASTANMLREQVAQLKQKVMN; partner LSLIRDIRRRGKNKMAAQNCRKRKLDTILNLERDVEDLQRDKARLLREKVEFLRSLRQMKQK
With `K36I` the binding fitness was -1.55 natural log.
With `A49L` the binding fitness was -1.41 natural log.
For `L45Y`, the binding fitness was -1.53 natural log.
For `A57P`, the binding fitness was -1.43 natural log.
`I28Q` has a binding fitness of -1.47 natural log.
`I28E` gave a binding fitness of -1.56 natural log.
`A49V` has a binding fitness of -1.36 natural log.
The binding fitness of `S47F` is reported as -1.34 natural log.

Study 3
Target: Alpha-2B adrenergic receptor (ADRA2B, Homo sapiens, UniProt P18089)
UniProt P18089, sequence (whole entry, looked up): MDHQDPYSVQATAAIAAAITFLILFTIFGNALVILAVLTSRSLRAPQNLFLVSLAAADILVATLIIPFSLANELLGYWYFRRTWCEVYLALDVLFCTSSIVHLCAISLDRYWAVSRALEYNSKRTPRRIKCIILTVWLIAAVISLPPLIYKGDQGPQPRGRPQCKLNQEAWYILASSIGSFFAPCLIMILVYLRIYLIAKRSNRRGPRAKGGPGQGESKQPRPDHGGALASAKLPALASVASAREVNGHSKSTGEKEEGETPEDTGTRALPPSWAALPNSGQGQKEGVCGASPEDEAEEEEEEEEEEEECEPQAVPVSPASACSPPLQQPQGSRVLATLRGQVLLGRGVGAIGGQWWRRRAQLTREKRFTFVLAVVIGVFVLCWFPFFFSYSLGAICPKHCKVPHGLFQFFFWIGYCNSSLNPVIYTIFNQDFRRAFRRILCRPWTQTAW
Read-out: ligand displacement
Concentration: 10 µM
`CC[C@H](CC(=O)O)n1c(=O)c2ncccc2n(Cc2cn(C)c3cc(C)cc(C)c23)c1=O` gave an inhibition of 0.56%.
With `CN([C@@H]1CCc2c(CC(=O)O)c3ccccc3n2C1)S(=O)(=O)c1ccc(F)cc1` the inhibition was 12.7%.
`Cc1c(NC(=O)c2cc(C(N)=O)nc3cc(F)ccc23)c(C(F)(F)F)nn1Cc1ccc(C#N)cc1` gave an inhibition of 7.65%.
For `O=C1NC(c2ccccn2)Sc2ccccc21` (stereo not drawn), the inhibition was -5.58%.
For `COc1ccc2cc(OCC3(C(=O)O)CN(C(=O)c4ccc(F)cc4)C3)ccc2c1`, the inhibition was 9.24%.
`CNC(=N)NCCC[C@H](NC(=O)[C@H](CC(C)C)NC(=O)NNC(=O)[C@H](Cc1ccccc1)NC(=O)[C@H](CO)NC(=O)[C@H](CC(N)=O)NC(=O)[C@@H](Cc1ccncc1)NC(=O)[C@H](N)Cc1ccc(O)cc1)C(=O)N[C@@H](Cc1ccccc1)C(N)=O` gave an inhibition of 17.6%.
`NS(=O)(=O)c1cc(NC(=O)Cc2ccccc2)ccc1Oc1cccc(Cl)c1` has an inhibition of 56.6%.
For `CN(C)C(=O)c1sc2nc(N3CCC(S(C)(=O)=O)CC3)cc(C(F)(F)F)c2c1N`, the inhibition was 3.36%.
`COc1cc(C(=O)O)ncc1C#Cc1ccccc1NS(=O)(=O)c1cccc2c(N(C)C)ccnc12` gave an inhibition of 8.34%.
The inhibition of `c1ccc(N2CCN(Cc3nc4ccccc4[nH]3)CC2)nc1` is reported as 18.4%.
`Cc1ccc(-c2cnc([C@@]3(O)CC[C@H](C(=O)O)C(C)(C)C3)s2)cc1Nc1cccc(C(F)(F)F)n1` gave an inhibition of 27%.
With `COc1cc(-c2cn(C3CCc4c(F)cccc4N(CC(F)(F)F)C3=O)nn2)ccc1-n1cnc(C)c1` (stereo not drawn) the inhibition was 31.1%.
The inhibition of `CS(=O)(=O)N1CCCC(NC(=O)[C@H](CCC2CCCCC2)NC(=O)c2ccc(CNC(=O)c3cnc4ccccn34)cc2)C1` (stereo partly drawn) is reported as 13.5%.
`Cc1cc(Nc2nccc(C)n2)cc(-c2cnc([C@@]3(O)CC[C@H](C(=O)O)C(C)(C)C3)s2)c1` has an inhibition of -7.14%.
`O=c1nc(-c2ccccn2)sc2ccccc12` gave an inhibition of 17%.

Study 4
Target: Hepatocyte nuclear factor 3-alpha (Foxa1, Mus musculus, UniProt P35582, residues 1-468, full length assumed)
Technique: EMSA with sequencing
Molecule type: double-stranded DNA, one strand shown
Medium: in vitro
Concentration: 10 and 20 nM
Notes: whole designed probe, mean of two concentrations, ends assumed
Baseline: negative control set to 0
Reading: higher = stronger binding
Residues (chain): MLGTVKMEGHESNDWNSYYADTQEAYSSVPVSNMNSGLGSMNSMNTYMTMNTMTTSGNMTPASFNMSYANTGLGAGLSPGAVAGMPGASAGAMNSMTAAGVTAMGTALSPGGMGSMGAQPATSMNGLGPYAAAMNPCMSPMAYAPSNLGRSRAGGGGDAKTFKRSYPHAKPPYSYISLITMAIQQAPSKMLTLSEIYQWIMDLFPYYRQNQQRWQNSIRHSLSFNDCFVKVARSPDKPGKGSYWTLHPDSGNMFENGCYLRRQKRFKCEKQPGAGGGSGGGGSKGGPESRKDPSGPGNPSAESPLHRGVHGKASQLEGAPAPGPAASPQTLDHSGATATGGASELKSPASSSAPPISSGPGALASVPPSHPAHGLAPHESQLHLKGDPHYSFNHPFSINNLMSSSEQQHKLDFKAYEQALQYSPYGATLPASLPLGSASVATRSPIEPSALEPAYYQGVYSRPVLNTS
`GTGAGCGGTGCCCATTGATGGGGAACATGAAAGCAGCCCAGACGAGCTGTGAGCAGCTGGGCTGGATAATTGTGAAGGATTCATGCTTGTTGCTGTTACCCCCAGTGTTTGCAGTGGGTTGTTTGCTTTGACTTTTGTTGAACTGTTGACAAAAGCATTAGATACAAATGGGAACAAATAAAGTGGTGAGATGCCAGGAGGGCTTGGCAGGAGTAGTGGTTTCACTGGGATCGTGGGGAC` — result for “normalised bound fraction”: 0.36 ratio.
Under “normalised bound fraction”, `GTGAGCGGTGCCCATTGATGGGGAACAATGGGCTCCTGGGAACAGAAGCAACAGCTGCGTGGAGGGTGAGGACAAGCTGACATTTAGAAATATTCTGGTCAAGAGTTCCAATTGGTGTTAGATTGCTGAGGGCGCTGGTGTGAAGCCCGGCTGAGTCATGAGGTTGGACAGACAGTCCAGGAGCGGCTGAGTAAGGCAAGGTGGGGAAGGGCACATGCTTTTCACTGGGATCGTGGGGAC` is recorded as -0.0757 ratio.
`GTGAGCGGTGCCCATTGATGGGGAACCAGCCTGCAGTGCGCTCAGTTAAACAATTCCAAATCAAGGAATTTTGTCTGATACAAGGAATTTGGCGTCTGTTTTCCTAACATGCACCCTGGGTAAATAGACTGGGGCGGCGGGCCATTTCCTGACCCAGCTGAAGCCAATATGCATTGCGGCCACAAGGTGGCGCGTCTGGGCCTGGCAAACCCCTGTGCTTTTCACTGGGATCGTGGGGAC`: “normalised bound fraction” 0.24 ratio.
`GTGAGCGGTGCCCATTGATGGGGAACTCGTGATTTGATATCTTGGTAATTTAGACTAGAGCCAGAGCAGTTTTTAAAGAGAATCTTTTCTGATCATTTTAAGCAGCATGATAAATTCTAAGTAAACATAAATTTTGAATAATTACAGAGTGGGCATGAGCTCTTCCTTTCTTTGTTCCTCTACATGCAAGAAACTGGATGCCAAGCCCAACCTCTGGATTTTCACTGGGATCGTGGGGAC`: “normalised bound fraction” 0.363 ratio.
Under “normalised bound fraction”, `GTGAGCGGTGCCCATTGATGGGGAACAAGCATCTTGACTTTACTCTATTCTTTTCTCATACATTTTTTAGTATTTTCATTTTAAAGGTAAATAAAATATTTTGAAATATATTACCTGTGTAAACAAGAAAGCATGAAACTAGAAATAATTAATATTTTTTATTGAACATTTTATTTTCTGTGCACATTAAAGTCCATGATGATATTTATTTTTCTCTTTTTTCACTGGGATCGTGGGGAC` is recorded as 0.457 ratio.
`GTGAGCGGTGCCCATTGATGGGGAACGTAGGGGTAATGAAAAACTTCTTGTGCAAGCGGCCATTAATCAGCAGTGTAACATTGCATAACGTGCTCCAAAGGAGCTCTCATGGGATCAGAGTACACAGCTGCATAATGCAGGCCAGTGTCTGTGCCTCCTGCTGACCTTTTCCAATGCAGAACTCGAACCATGTGATGCATGCTTCTTGCCAAGTCACTTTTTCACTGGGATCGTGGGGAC`: “normalised bound fraction” -0.0423 ratio.
Under “normalised bound fraction”, `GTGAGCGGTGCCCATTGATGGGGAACCAAGTTTGTGGTCCAGGAGCAACAGGTTATGCCATACAGCCTAGGTGTGTAGTAGGCTACACACCGTCTATGTTTGTGTTGTACACTCTTTGTGCAAACATTGTTGATGAAATCTTCTCACCATGACTCATGAACATACCCCTGTTGTTAAGCGATACATGACTGTACTTTTTTTAAAAAGTCCAAGGATATATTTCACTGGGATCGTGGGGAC` is recorded as 0.425 ratio.
`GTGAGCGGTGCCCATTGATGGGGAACTTTAATTTTGCCCTATGTAAACTTGCTCAGCTGTAAACAAACAAGCCATCATGGAGACTAGATCAAATAATAAGCTCGTTGACTCCACGCTAGAGTAAACAAGGACATCAGAGTAAGTCATAGCCCTACAGATGTTAGACAAAAGGAAGGATTTTTACGTCTTTATTGATGTAAATTACATACTGTAGGAGTCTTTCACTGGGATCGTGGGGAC`: “normalised bound fraction” 0.477 ratio.

For quick reference, copied from above (study 1):
For `COc1cc2ncnc(Nc3ccc(O)c(Br)c3)c2cc1OC`, the remaining activity was 79.4%.
With `O=C(Nc1cccc(Nc2nccc(Nc3cccc(C(F)(F)F)c3)n2)c1)C1CC1` the remaining activity was 94.9%.
The remaining activity of `CCN(CC)CCNC(=O)c1c(C)[nH]c(/C=C2\C(=O)Nc3ccc(Cl)cc32)c1C` is reported as 24.7%.
